Measured values from different studies.
Each line is one published result; not all experiments were run side by side. “And” joins repeats or separate records; there may be more than shown. Numbers after ± are the reported error.

The EC50 of `CN1C(=O)CN=C(c2ccccc2)c2cc(Cl)ccc21` is reported as 2810 ± 400 nM (GABAA receptor, rat; GABA current potentiation, positive modulator, whole-cell voltage clamp; cultured Purkinje cells; after 2 h oxygen-glucose deprivation, together with: GABA EC20).
Under “minimum inhibitory concentration”, `CO[C@H]1O[C@H](CO)[C@@H](O)[C@H](O)[C@@H]1O` is recorded as > 160 mM (Clematis montana lectin; hemagglutination; rabbit erythrocytes; together with: 8 hemagglutination units).
`COc1cccc2c1C(=O)c1c(O)c3c(c(O)c1C2=O)C[C@@](O)(C(=O)CO)C[C@@H]3O[C@H]1C[C@H](N)[C@H](O)[C@H](C)O1`: “concentration for maximal DNA damage” 4 µM (calf thymus DNA; terbium luminescence; 24 h).
`Cc1ccc(-c2nc3ccc(C)cn3c2CC(=O)N(C)C)cc1` gave an EC50 of 466 ± 75.9 nM (GABAA receptor, rat; GABA current potentiation, positive modulator, whole-cell voltage clamp; cultured Purkinje cells; together with: GABA EC20).
`CC(=O)[C@H]1CC[C@H]2[C@@H]3CC[C@H]4C[C@H](O)CC[C@]4(C)[C@H]3CC[C@]12C` has an EC50 of 314 nM (human GABA-A receptor, infant cortex; GABA current potentiation, positive allosteric modulator, two-electrode voltage clamp; Xenopus oocytes injected with membranes; together with: 10 µM GABA).
With `buprenorphine hydrochloride` the IC50 was 6.32 ± 1.39 µM (UGT; measured: 4-MU glucuronide; human liver microsomes; together with: 4-methylumbelliferone 100 µM).
For `C[n+]1ccc(-c2ccccc2)cc1`, the Kt was 7.1 ± 3.3 µM (human MATE1; uptake, substrate; CHO stably expressing MATE1).
`O=c1[nH]c(=O)c2[nH]c(=O)[nH]c2[nH]1` has a melting temperature of 64.1 °C and 48.7 °C (MftR R63S (Burkholderia thailandensis); concentration not given).
Under “concentration for maximal DNA damage”, `CC(=O)Nc1c(N)nc(SCC(=O)NN)[nH]c1=O` is recorded as 1 µM (calf thymus DNA; terbium luminescence; 24 h).
The EC50 of `CCOC(=O)c1ncn2c1[C@@H]1CCCN1C(=O)c1cc(OC)ccc1-2` is reported as 2500 nM (GABAA receptor; GABA-induced current potentiation, positive modulator, automated patch clamp; Jurkat; together with: GABA EC3 0.3 µM).

Repeated from above:
`COc1cccc2c1C(=O)c1c(O)c3c(c(O)c1C2=O)C[C@@](O)(C(=O)CO)C[C@@H]3O[C@H]1C[C@H](N)[C@H](O)[C@H](C)O1`: “concentration for maximal DNA damage” 4 µM (calf thymus DNA; terbium luminescence; 24 h).
`Cc1ccc(-c2nc3ccc(C)cn3c2CC(=O)N(C)C)cc1` gave an EC50 of 466 ± 75.9 nM (GABAA receptor, rat; GABA current potentiation, positive modulator, whole-cell voltage clamp; cultured Purkinje cells; together with: GABA EC20).
